Measurements gathered from unrelated publications.
Numbered parts are unrelated; each lists some results of a single study. Substitutions count along the parent as printed.

Sample 1
Target: Histone acetyltransferase KAT6A, winged helix 1, GST fusion (KAT6A, Homo sapiens, UniProt Q92794, residues 1-85)
Technique: protein binding microarray
Form: double-stranded DNA, one strand shown
Medium: in vitro
Tested at: not given
Setting: 8-mer, flanks averaged, mean of 2 arrays, mostly near background
Baseline: not given
Reading: higher = stronger binding
Quantity: E-score
Target sequence (chain): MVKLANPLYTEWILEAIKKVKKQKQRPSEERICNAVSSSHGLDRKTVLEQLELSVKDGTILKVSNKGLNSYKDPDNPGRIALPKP
Sequence = ACATGTCA; result = -0.092
Sequence = AAGCCGAG; result = 0.091
Sequence = AGGGCATA; result = -0.186
Sequence = ACGTAGTC; result = -0.0616
Sequence = AAACGGAA; result = 0.193
Sequence = CCTACGCA; result = 0.0398
Sequence = CTAATCGA; result = -0.0941
Sequence = CCATCGTC; result = -0.0319
Sequence = ATGCTAAG; result = -0.0379
Sequence = AGACACAA; result = -0.199
Sequence = CCAGCCAA; result = -0.194
Sequence = AAATTATA; result = 0.082
Sequence = AAGACAGC; result = -0.0638
Sequence = TCCCCCCA; result = -0.208
Sequence = GAGGCGGC; result = 0.348
Sequence = CCAATGGG; result = -0.153
Sequence = AACAGGGG; result = -0.26
Sequence = GAGGTGTA; result = 0.00498
Sequence = AGTAGCTA; result = -0.109
Sequence = CCCAAAAG; result = -0.161
Sequence = CTAGCTCC; result = 0.0581
Sequence = TAGCCTAA; result = -0.159
Sequence = GAGAGGGC; result = 0.114
Sequence = GTAATTTA; result = 0.077
Sequence = CTGATCAA; result = -0.0863

Sample 2
Target: ABI1, truncated, D143A, DHFR fusion (Arabidopsis thaliana)
Technique: DHFR PCA, deep sequencing
Medium: yeast
Setting: methotrexate growth selection, single substitutions
With: (+)-ABA 2500 µM
Baseline: wild-type fitted maximum
Reading: higher = stronger binding
Quantity: relative binding score
Starting sequence: PYL1, truncated, DHFR fusion (Arabidopsis thaliana); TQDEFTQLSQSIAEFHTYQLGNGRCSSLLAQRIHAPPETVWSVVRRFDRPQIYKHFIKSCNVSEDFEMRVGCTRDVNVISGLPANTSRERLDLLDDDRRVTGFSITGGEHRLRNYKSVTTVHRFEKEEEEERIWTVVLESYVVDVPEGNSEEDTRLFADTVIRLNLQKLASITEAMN; partner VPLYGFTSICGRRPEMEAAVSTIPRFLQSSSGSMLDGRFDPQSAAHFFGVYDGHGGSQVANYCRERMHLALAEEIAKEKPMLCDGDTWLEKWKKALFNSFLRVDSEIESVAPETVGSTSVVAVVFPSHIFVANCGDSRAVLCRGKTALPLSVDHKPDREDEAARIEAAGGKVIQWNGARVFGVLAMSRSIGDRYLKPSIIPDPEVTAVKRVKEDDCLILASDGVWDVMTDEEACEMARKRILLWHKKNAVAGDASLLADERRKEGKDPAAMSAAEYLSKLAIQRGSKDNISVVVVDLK
Substitution = F157C; result = 66.4%
Substitution = P37W; result = 82.1%
Substitution = V161L; result = 98.4%
Substitution = N165K; result = 73.1%
Substitution = E4V; result = 99.2%
Substitution = T86S; result = 96.1%
Substitution = G108I; result = 52.1%
Substitution = T154M; result = 92.8%
Substitution = K168R; result = 96.3%
Substitution = R74C; result = -6.07%
Substitution = Q51R; result = 85%
Substitution = V100T; result = 95.3%
Substitution = T39C; result = 100%
Substitution = P50H; result = -1.54%
Substitution = P36A; result = 101%
Substitution = Q10P; result = 104%
Substitution = Y53Q; result = 65.3%
Substitution = V137D; result = -1.58%
Substitution = E130C; result = 101%
Substitution = P37V; result = 97.4%
Substitution = W134R; result = 94%
Substitution = G23V; result = 92.3%
Substitution = V100F; result = 84.3%
Substitution = R113Q; result = 117%
Substitution = G107N; result = 99.4%

Sample 3
Target: RNA binding protein fox-1 homolog 2, RRM domain, GST-SBP tag (RBFOX2, Homo sapiens, UniProt O43251-10, residues 100-194)
Technique: RNA Bind-n-Seq
Form: RNA
Medium: in vitro
Tested at: 365 nM
Setting: natural RNA segment, single round, ends assumed
Baseline: no-protein control
Reading: higher = stronger binding
Quantity: RBNS enrichment (R)
Shared flanks, not repeated: GGGAGUUCUACAGUCCGACGAUC … UGGAAUUCUCGGGUGCCAA
Construct (chain): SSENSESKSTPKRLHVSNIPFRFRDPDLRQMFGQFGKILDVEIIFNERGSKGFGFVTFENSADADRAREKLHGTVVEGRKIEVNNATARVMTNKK
Sequence = GCUGAAAAUGUCACCACUAUCUGGAGAUUUCGACGUGUUUUCCUCUCUGAAUCUGUUAUGAACACGUUGGUUGGCUGGAUUCAGUAAUAAAUAUGUAAGGCCUUUCUUUU; result = 0.398
Sequence = CAAAGCCGUACAGAGCCUACGUGCUCUUUCCUGCAAGUGGGAGAAAACUAAUCAAUGGCACACAGGGCCAGGUGUGGCCCUGUGAGGCAAAGGAUAAUGUCACCUCAGGA; result = 0.271
Sequence = AGCUAAAGAAAAACUGCAUAUGCAAAUCAUACCGUAUUCAUUUUUUUAUUUAACUUGGGGAUGGAAUGGGGAUAGCAUACAUUUUAUUUGUACAAUAUUUAACAAUCACU; result = 0.351
Sequence = UAAAGGCCAAUCAAUGCACUGUCUGUCUCUCCUUUUAGGAGUAAGCCAUCCCACAAGUUCUAUACCAUAUUUUUAGUGACAGUUGAGGUUGUAGAUACACUUUAUAACAU; result = 0.441
Sequence = UCACUCUGUAGACCAGGCUGGCCUUGAACUCAGAAAUCUGCCUGCCUUUGCCUCCCAAGUGCUGGGACUAAAGGUGUGUGCCACCACUGUCCAGCUUGUGACCAGCCUUU; result = 0.817
Sequence = AGAAAUUGAAUCUUGAUCAAUAUUUAAACCAAAGGGAAAAGGGAAAACCAAAACCAAACCAAAGUUCUUUGUUUUGCCUGGUUACGACAUUCAGUUUAUCUGUGUAAAUA; result = 0.369
Sequence = CAAGGCCAGGGUCUGCUGCACUGCUGUUCUGAUAAUAGGUUCUUAACAUUGUAUGUAUAUGUGUUUGCUUUGGGAGGAGGUGGCACUGUGUUAGUUGACAGUUGUGGGCU; result = 4.73
Sequence = GAAAAAGAAAGUGCCUUAUUUUUCUUCAUGGUCAUUUAGUCAAGUGUCCUGUAAGAUCAGCUCCUCCCUCAGAAUAAAGUUACUGCAUGUUCCUCAGUCGCCCAGUAUGU; result = 13.5

Sample 4
Substance: RNF13 RING domain (UniProt O43567)
Technique: yeast two-hybrid
Medium: yeast
Setting: mostly zero background
Baseline: not given
Reading: higher = stronger interaction
Quantity: lacZ reporter activity
target = UBE2L3 UBC core domain (UniProt P68036); result = 0
target = UBE2G1 UBC core domain (UniProt P62253); result = 0
target = UBE2O UBC core domain (UniProt Q9C0C9); result = 0
target = UBE2T UBC core domain (UniProt Q9NPD8); result = 0
target = UBE2Z UBC core domain (UniProt Q9H832); result = 0
target = UBE2J2 UBC core domain (UniProt Q8N2K1); result = 0
target = UBE2M UBC core domain (UniProt P61081); result = 0
target = UBE2J1 UBC core domain (UniProt Q9Y385); result = 0
target = UBE2S UBC core domain (UniProt Q16763); result = 0
target = UBE2B UBC core domain (UniProt P63146); result = 0
target = UBE2I UBC core domain (UniProt P63279); result = 0
target = UBE2R2 UBC core domain (UniProt Q712K3); result = 0
target = BIRC6 UBC core domain (UniProt Q9NR09); result = 0
target = UBE2C UBC core domain (UniProt O00762); result = 0
target = UBE2D1 UBC core domain (UniProt P51668); result = 7230
target = UBE2Q1 UBC core domain (UniProt Q7Z7E8); result = 0
target = UBE2E3 UBC core domain (UniProt Q969T4); result = 6600

Sample 5
Target: CCNA2, cyclin fold, Cln2 fusion (human)
Technique: yeast growth competition, sequencing
Medium: yeast
Setting: weak parent motif
Baseline: not given
Reading: higher = stronger binding
Quantity: normalised enrichment score
Starting sequence: CDC42EP1 docking peptide (human); SLVVGKLSFDSSP
Substitution = SLVVGALSFDSSP [K6A]; result = -0.325
Substitution = SLVVGKASFDSSP [L7A]; result = -0.29
Substitution = SLVAGKLSFDSSP [V4A]; result = 0.121
Substitution = SLVVGKLSFDSSA [P13A]; result = 0.117
Substitution = ALVVGKLSFDSSP [S1A]; result = 0.241
Substitution = SLVVGKLSFDASP [S11A]; result = -0.0741
Substitution = SLVVGKLSFASSP [D10A]; result = 0.4

For quick reference, copied from above (sample 2):
Substitution = E4V; result = 99.2%
Substitution = T86S; result = 96.1%
Substitution = G108I; result = 52.1%
Substitution = T154M; result = 92.8%
Substitution = K168R; result = 96.3%
Substitution = R74C; result = -6.07%
